Measurements of several laboratories.
Each line is one published result; not all experiments were run side by side. “And” joins repeats or separate records; there may be more than shown.
CDK9: Cyclin-dependent kinase 9 (CDK9, Homo sapiens, UniProt P50750)
CDK9 with cyclin T1: Cyclin-dependent kinase 9, with cyclin T1 (CDK9, Homo sapiens, UniProt P50750)
CDK9 inactive: Cyclin-dependent kinase 9, inactive (CDK9, Homo sapiens, UniProt P50750)

SMILES | target | test | test system | setting | scale | endpoint | result
COc1cc(Nc2nc(C)cc(-c3cnn4nc(OC)ccc34)n2)cc(C(F)(F)F)c1 | CDK9 | inhibitor | – | 1 µM | reference: control | remaining activity | 100%
C=CC(=O)N1CCCC(n2c(=O)c3ncccc3n(Cc3ccc(Oc4ccccc4)cc3)c2=O)C1 (centres unmarked) | CDK9 | cell-free assay, competition with immobilised ligand | – | 1 µM | – | remaining binding | 90%
Cc1ccc(-c2c(/C=C(\C#N)C(=O)NC(C)C)n(CCCO)c3ncnc(N)c23)cc1 | CDK9 | cell-free assay, competition with immobilised ligand | – | 1 µM | – | remaining binding | 100%
CCn1cc(C(=O)O)c(=O)c2c(N)c(F)c(NC3CCCCC3)cc21 | Cyclin-dependent kinase 9, with cyclin T2 (CDK9, Homo sapiens, UniProt P50750) | kinase activity | – | 0.1 µM, added: ATP at Km | – | inhibition | 24.3%
NC(=O)C[C@H]1CCc2sc3ncnc(O[C@H]4CC[C@H](N5CCOCC5)CC4)c3c21 | CDK9 with cyclin T1 | enzyme activity, inhibitor | – | 10 µM | – | inhibition | 46%
O=C(Nc1cc(-c2ccnc3[nH]ccc23)c(Cl)cn1)[C@H]1CCC[C@@H](NC(=O)C(F)(F)F)C1 | CDK9 | binding, competition with immobilised ligand | – | 0.1 µM | – | remaining binding | 0.2%
Cc1cccc(O[C@H]2CCC[C@@H](C(C)CNCc3ccncc3)C2)c1 (relative stereo) | CDK9 with cyclin T1 | enzyme activity, inhibitor | – | 10 µM | – | inhibition | 10%
Cc1cc(C)nc(Nc2ccc([C@@H]3CCCN(C(=O)/C=C/c4c(C)nn(C)c4C)C3)nc2)n1 | CDK9 | enzyme activity, inhibitor, ADP detection | – | 1 µM | – | activity vs control | 107%
Cc1cnc2nc1Nc1cccc(c1)COC/C=C/COCc1cc(ccc1OCCN1CCOCC1)N2 | CDK9 | binding | – | 0.1 µM | – | remaining binding | 100%
COc1ccc(NC(=O)Nc2ccc3c(c2)C(=O)N(C(C)CO)CC(C)C(CN(C)Cc2ccc4c(c2)OCO4)O3)cc1 (centres unmarked) | CDK9 with cyclin T1 | kinase activity, KinaseProfiler | – | 0.03 µM, species human | reference: control | remaining activity | 109%
COc1ccc(C(=O)/C=C/c2ccccc2-c2c[nH]c3ccc(C#N)cc23)c(O)c1 | CDK9 with cyclin T1 | enzyme activity, inhibitor | – | 20 µM | – | inhibition | 9%
O=C=[N][Ru-4]123([n]4c5ccc(O)cc5c5c6c(c7cc(F)c[n+]1c7c54)C(=O)NC6=O)[S+]1CC[S+]2CC[S+]3CC1 (centres unmarked) | CDK9 with cyclin T1 | enzyme activity | – | 100 nM, human enzyme, added: 10 µM ATP | reference: untreated | remaining activity | 108%
C=CC(=O)Nc1cccc(-c2cnc3[nH]cc(C(=O)NC(C)(C)C)c3n2)c1 | CDK9 with cyclin T1 | enzyme activity, inhibitor | – | 0.1 µM | – | inhibition | 2%
CN1CCN(Cc2ccc(-c3ccc(CO[C@H]4CCC[C@@H]4NC(=O)c4cc(-c5cnn(C)c5)cnc4N)cc3)cc2)CC1 | CDK9 inactive | SelectScreen kinase profiling | – | 0.1 µM | – | inhibition | 1%
C[C@]1(O)CCCN(c2nc(Nc3ccc(S(=O)(=O)N[C@H]4CC[C@H](CN5CCN(c6ccc(C7CCC(=O)NC7=O)cc6F)CC5)CC4)cc3)ncc2C(F)(F)F)C1 (some centres unmarked) | CDK9 | binding, competition with immobilised ligand | – | 1 µM | – | remaining binding | 96%
C[C@H]1CN(C(=O)c2cn(-c3ccnc(N)n3)c3cc(C#CC4(O)CCCCC4)ccc23)CCN1 | CDK9 with cyclin T1 | enzyme activity, inhibitor | – | 1 µM | – | inhibition | 4%
CN1C[C@@H](c2c[nH]c3cc(Br)ccc23)NC[C@@H]1c1c[nH]c2cc(Br)ccc12 | CDK9 with cyclin T1 | enzyme activity, inhibitor | – | 10 µM | – | remaining activity | 93%
CNC(=O)C[C@H](Cc1ccc(C#N)cc1)NC(=O)c1cc(-c2ccc(CN[C@H](C)c3ccc(C)cc3)o2)ccc1Cl | CDK9 with cyclin T1 | enzyme activity, inhibitor | – | 1 µM | – | activity vs control | 99%
Nc1ncc2c(n1)-c1c([nH]c3ccc(C4=CCOCC4)cc13)CCC2 | CDK9 | binding, competition with immobilised ligand | – | 1 µM | – | remaining binding | 100%
CC(=O)N1c2ccc(-c3ccc(CNC(=O)c4cn5cc(-c6cnc(N)nc6)nc(N6CCOCC6)c5n4)cc3)cc2CC[C@@H]1C | CDK9 | KINOMEscan | – | 10 µM | – | remaining binding | 90%
Cc1nn(C)c(C)c1/C=C/C(=O)N1CCC[C@H](Cc2ccc(Nc3ccccn3)nn2)C1 | CDK9 | enzyme activity, inhibitor, ADP detection | – | 1 µM | – | activity vs control | 101%
CN1CCN(Cc2ccc(NC(=O)c3cccc(C#Cc4cnc(N)c5ncccc45)c3)cc2C(F)(F)F)CC1 | CDK9 | cell-free assay, competition with immobilised ligand | – | 50 nM | – | remaining binding | 100%
N[C@H]1CC[C@H](Nc2nccc(-c3cccnc3Oc3ccc(NC(=O)NC4CC4)c4ccccc34)n2)CC1 | CDK9 | kinobead competition pulldown | HEK293/HCT116 lysate mixture | 10 µM, 1 h, 4 °C | lower = stronger competition | log2 LFQ intensity | 25.6 and 25.3 and 25.4
CC(C)=CC1OC(C)(C)C2C=C3C(=O)C(Cl)=CC(O)C3C3C(O)C4OC4C(=O)C132 (centres unmarked) | CDK9 | cell-free assay, competition with immobilised ligand | – | 10 µM | – | remaining binding | 77%
C=CC(=O)N1Cc2nc(-c3cc(-c4cc(Cl)cnc4Cl)c(F)cc3F)n(-c3ccncn3)c2C1 | CDK9 inactive | kinome panel | – | 1 µM | – | inhibition | 4.8%
C=CC(=O)N1CCc2ccc(-n3c(=O)ccc4cnc5ccc(-c6cnn(C)c6)cc5c43)cc21 | CDK9 | KINOMEscan | – | 1 µM | reference: DMSO control | remaining binding | 100%

Some of these lines once more:
SMILES | target | test | test system | setting | scale | endpoint | result
CCn1cc(C(=O)O)c(=O)c2c(N)c(F)c(NC3CCCCC3)cc21 | Cyclin-dependent kinase 9, with cyclin T2 (CDK9, Homo sapiens, UniProt P50750) | kinase activity | – | 0.1 µM, added: ATP at Km | – | inhibition | 24.3%
C=CC(=O)Nc1cccc(-c2cnc3[nH]cc(C(=O)NC(C)(C)C)c3n2)c1 | CDK9 with cyclin T1 | enzyme activity, inhibitor | – | 0.1 µM | – | inhibition | 2%
Nc1ncc2c(n1)-c1c([nH]c3ccc(C4=CCOCC4)cc13)CCC2 | CDK9 | binding, competition with immobilised ligand | – | 1 µM | – | remaining binding | 100%
CN1C[C@@H](c2c[nH]c3cc(Br)ccc23)NC[C@@H]1c1c[nH]c2cc(Br)ccc12 | CDK9 with cyclin T1 | enzyme activity, inhibitor | – | 10 µM | – | remaining activity | 93%
